Measured values pooled from the literature.
Compare with care: the assays were run in different laboratories. “And” joins repeats or separate records; there may be more than shown. Numbers after ± are the reported error.
TDP1: Tyrosyl-DNA phosphodiesterase 1 (TDP1, Homo sapiens, UniProt Q9NUW8)
UniProt Q9NUW8, sequence (whole entry, looked up): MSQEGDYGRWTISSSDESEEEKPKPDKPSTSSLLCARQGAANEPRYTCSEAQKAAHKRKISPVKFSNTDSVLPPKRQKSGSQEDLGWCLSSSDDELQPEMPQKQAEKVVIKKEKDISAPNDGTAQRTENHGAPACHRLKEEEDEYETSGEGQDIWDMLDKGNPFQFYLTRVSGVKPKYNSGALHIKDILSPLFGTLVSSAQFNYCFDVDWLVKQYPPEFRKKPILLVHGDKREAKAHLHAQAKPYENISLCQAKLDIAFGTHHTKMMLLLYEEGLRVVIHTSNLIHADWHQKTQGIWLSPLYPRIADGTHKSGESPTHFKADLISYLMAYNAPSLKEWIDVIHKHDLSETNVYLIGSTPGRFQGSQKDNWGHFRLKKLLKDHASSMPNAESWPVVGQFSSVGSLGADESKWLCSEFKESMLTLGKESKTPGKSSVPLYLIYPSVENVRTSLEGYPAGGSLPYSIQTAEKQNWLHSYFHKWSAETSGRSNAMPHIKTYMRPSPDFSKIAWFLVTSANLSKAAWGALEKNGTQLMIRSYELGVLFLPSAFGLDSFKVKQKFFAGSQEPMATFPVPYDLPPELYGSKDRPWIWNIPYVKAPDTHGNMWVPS
UniProt O15438, sequence (whole entry, looked up): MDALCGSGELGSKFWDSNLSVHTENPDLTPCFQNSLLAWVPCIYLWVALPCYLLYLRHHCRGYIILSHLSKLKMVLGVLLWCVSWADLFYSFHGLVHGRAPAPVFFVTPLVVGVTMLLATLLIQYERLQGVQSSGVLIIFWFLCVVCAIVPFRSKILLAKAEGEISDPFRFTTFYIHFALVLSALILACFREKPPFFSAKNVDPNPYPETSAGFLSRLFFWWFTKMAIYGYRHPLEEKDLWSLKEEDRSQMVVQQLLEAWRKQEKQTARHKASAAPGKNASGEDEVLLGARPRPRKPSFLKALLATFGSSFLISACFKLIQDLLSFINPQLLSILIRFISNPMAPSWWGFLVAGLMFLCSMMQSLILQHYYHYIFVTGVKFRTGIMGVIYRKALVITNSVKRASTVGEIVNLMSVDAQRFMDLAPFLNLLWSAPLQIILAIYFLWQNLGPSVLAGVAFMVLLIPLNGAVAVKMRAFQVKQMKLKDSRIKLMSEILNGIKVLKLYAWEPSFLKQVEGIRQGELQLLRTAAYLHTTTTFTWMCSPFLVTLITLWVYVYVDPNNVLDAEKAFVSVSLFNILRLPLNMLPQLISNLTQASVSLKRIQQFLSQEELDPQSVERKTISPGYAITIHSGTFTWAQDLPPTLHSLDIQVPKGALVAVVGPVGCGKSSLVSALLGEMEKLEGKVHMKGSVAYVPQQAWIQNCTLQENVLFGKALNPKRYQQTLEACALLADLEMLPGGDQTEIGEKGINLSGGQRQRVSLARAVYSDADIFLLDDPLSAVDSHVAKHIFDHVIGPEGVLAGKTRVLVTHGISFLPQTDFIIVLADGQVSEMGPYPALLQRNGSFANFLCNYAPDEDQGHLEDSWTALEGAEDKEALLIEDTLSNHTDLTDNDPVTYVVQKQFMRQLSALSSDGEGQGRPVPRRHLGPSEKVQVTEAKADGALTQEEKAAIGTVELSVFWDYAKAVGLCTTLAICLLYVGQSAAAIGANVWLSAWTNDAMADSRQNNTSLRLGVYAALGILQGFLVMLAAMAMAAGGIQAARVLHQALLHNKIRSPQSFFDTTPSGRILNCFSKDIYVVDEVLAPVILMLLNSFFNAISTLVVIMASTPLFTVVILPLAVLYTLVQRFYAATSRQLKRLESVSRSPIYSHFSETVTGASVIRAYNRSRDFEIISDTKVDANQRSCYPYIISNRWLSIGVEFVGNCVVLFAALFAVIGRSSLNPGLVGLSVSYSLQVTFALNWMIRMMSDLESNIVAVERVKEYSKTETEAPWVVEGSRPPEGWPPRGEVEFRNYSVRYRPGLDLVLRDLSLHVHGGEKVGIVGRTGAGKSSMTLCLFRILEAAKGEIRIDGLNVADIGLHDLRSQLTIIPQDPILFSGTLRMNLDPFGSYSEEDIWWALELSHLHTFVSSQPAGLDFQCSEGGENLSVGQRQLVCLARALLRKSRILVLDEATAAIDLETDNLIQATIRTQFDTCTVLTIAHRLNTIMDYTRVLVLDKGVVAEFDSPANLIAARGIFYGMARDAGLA

With `O=C(O)c1ccc(Nc2c(-c3ccc(CON=Cc4ccc(OC5=NS(=O)(=O)c6ccccc65)cc4)cc3)nc3cc(-c4ccccc4)ccn23)cc1` the inhibition was 80.8% (TDP1; enzyme activity, inhibitor; 100 µM, unpurified compound).
With `CC(C)C[C@@H](NC(=O)[C@@H](CC(C)C)NC(=O)[C@@H](CC(=O)O)NC(=O)[C@@H](CC(C)C)NC(=O)[C@@H](CC(C)C)NC(=O)[C@@H](CC(C)C)NC(=O)[C@H](NC(=O)[C@@H](CC(=O)O)NC(=O)[C@H](NC(=O)[C@H]1CCCN1C(=O)[C@@H](Cc1ccccc1)NC(=O)[C@@H](CC(C)C)NC(=O)[C@@H](CC(C)C)NC(=O)[C@@H](CC(=O)O)NC(=O)[C@@H](CC(C)C)NC(=O)[C@@H](Cc1ccc(O)cc1)NC(=O)[C@@H](C)NC(=O)[C@@H](CCCNC(=N)N)NC(=O)[C@@H](Cc1c[nH]c2ccccc12)NC(=O)[C@H]1CCCN1C(=O)[C@@H](CC(N)=O)NC(=O)[C@@H](CCC(N)=O)NC(=O)[C@@H](CC(=O)O)NC(=O)[C@@H](CC(=O)O)NC(=O)[C@@H](CSC1CC(=O)N(CCNC(=O)CN2CCN(CC(=O)O)CCN(CC(=O)O)CC2)C1=O)NC(=O)[C@@H](C)N)[C@H](C)O)[C@H](C)O)C(=O)N[C@H](Cc1c[nH]c2ccccc12)C(=O)O` (stereo partly shown) [fluorine-18 labelled] the tissue uptake was 3.05 %ID/g (male nude mice, PC-3 xenograft, tumor; intravenous, 1 h).
For `CC(C)C[C@H](NC(=O)[C@@H](CCCCNC(=O)[C@@H](Cc1ccccc1)NC(=O)CCCCCNC(=O)CN1CCN(CC(=O)O)CCN(CC(=O)O)CCN(CC(=O)O)CC1)NC(=O)[C@H](Cc1ccc(O)cc1)NC(=O)[C@H](CO)NC(=O)[C@H](Cc1c[nH]c2ccccc12)NC(=O)[C@H](Cc1c[nH]cn1)NC(=O)[C@@H]1CCC(=O)N1)C(=O)N[C@@H](CCCNC(=N)N)C(=O)N1CCC[C@H]1C(=O)NCC(N)=O` [indium-111 labelled], the tissue uptake was 7.58 ± 1.1 %ID/g (female athymic nude mice, kidneys; intravenous, 0.037 MBq, 2 h).
With `CCCC[C@H](NC(=O)COCCOCCNC(=O)CN1CCN(CC(=O)O)CCN(CC(=O)O)CC1)C(=O)N[C@H]1CC(=O)NCCCC[C@@H](C(N)=O)NC(=O)[C@H](Cc2c[nH]c3ccccc23)NC(=O)[C@H](CCCNC(=N)N)NC(=O)[C@@H](Cc2ccccc2)NC(=O)[C@H](Cc2c[nH]cn2)NC1=O` [technetium-99m labelled] the tissue uptake was 0.02 ± 0.01 %ID/g (C57 mouse, stomach; intravenous, 0.037 MBq, 24 h).
`O=C(O)c1ccc(Nc2c(-c3ccc(CON=Cc4c(C=Cc5ccoc5)oc5ccc(O)cc45)cc3)nc3cc(-c4ccccc4)ccn23)cc1` has an inhibition of 51.1% (TDP1; enzyme activity, inhibitor; 100 µM, unpurified compound).
`CCCC[C@H](NC(=O)CCCCCCCNC(=O)CN1CCN(CC(=O)O)CCN(CC(=O)O)CC1)C(=O)N[C@H]1CC(=O)NCCCC[C@@H](C(N)=O)NC(=O)[C@H](Cc2c[nH]c3ccccc23)NC(=O)[C@H](CCCNC(=N)N)NC(=O)[C@@H](Cc2ccccc2)NC(=O)[C@H](Cc2c[nH]cn2)NC1=O` [technetium-99m labelled] has a tissue uptake of 0.33 ± 0.36 %ID/g (C57 mouse, skin; intravenous, 0.037 MBq, 24 h).
With `ABCC3 (Homo sapiens, UniProt O15438)` the Km was 42.5 µM (O=C(c1ccc(OCCN2CCCCC2)cc1)c1c(-c2ccc(O[C@@H]3O[C@H](C(=O)O)[C@@H](O)[C@H](O)[C@H]3O)cc2)sc2cc(O[C@@H]3O[C@H](C(=O)O)[C@@H](O)[C@H](O)[C@H]3O)ccc12; steady-state kinetics; Sf9 vesicles; pH 7, 37 °C, not purified, added: ATP).
The tissue uptake of `C[C@@H](O)[C@@H]1NC(=O)[C@H](CCCCN)NC(=O)[C@@H](Cc2c[nH]c3ccccc23)NC(=O)[C@H](Cc2ccc(O)cc2)NC(=O)[C@@H](NC(=O)[C@@H](Cc2ccccc2)NC(=O)CN2CCN(CC(=O)O)CCN(CC(=O)O)CCN(CC(=O)O)CC2)CSSC[C@@H](C(=O)N[C@H](CO)[C@@H](C)O)NC1=O` [gallium-67 labelled] is reported as 1.62 ± 0.91 %ID/g (gamma counting; ICR mice, male, bone; iv, 11 kBq/mouse, 3 h).
For `C=C1CC[C@H](OCCCNC(=O)CCOCCOCCOCCOCCOCCOCCOCCOCCOCCOCCOCCOCCOCCOCCOCCOCCOCCOCCOCCOCCOCCOCCOCCOCCOCCOCCOCCOCCOCCOCCOCCOCCOCCOCCOCCOCCNC(=O)CCN2C(=O)CC(SC[C@H](NC(=O)[C@H](Cc3ccccc3)NC(=O)[C@H](CC(N)=O)NC(=O)[C@H](Cc3c[nH]cn3)NC(=O)[C@@H](NC(=O)[C@H](CC(=O)O)NC(=O)[C@H](CCC(N)=O)NC(=O)[C@H](CC(C)C)NC(=O)[C@H](CCCCN)NC(=O)[C@H](CCCCN)NC(=O)[C@H](CCCNC(=N)N)NC(=O)[C@H](CC(C)C)NC(=O)[C@H](Cc3c[nH]c4ccccc34)NC(=O)[C@H](CCC(=O)O)NC(=O)[C@@H](NC(=O)[C@H](CCCNC(=N)N)NC(=O)[C@H](CCC(=O)O)NC(=O)[C@H](CCSC)NC(=O)[C@H](CO)NC(=O)[C@H](CC(N)=O)NC(=O)[C@H](CC(C)C)NC(=O)[C@H](Cc3c[nH]cn3)NC(=O)[C@H](CCCCN)NC(=O)CNC(=O)[C@H](CC(C)C)NC(=O)[C@H](CC(N)=O)NC(=O)[C@H](Cc3c[nH]cn3)NC(=O)[C@H](CCSC)NC(=O)[C@H](CC(C)C)NC(=O)[C@H](CCC(N)=O)NC(=O)[C@@H](NC(=O)[C@H](CCC(=O)O)NC(=O)[C@H](CO)NC(=O)[C@@H](NC(=O)[C@@H](N)CO)C(C)C)[C@@H](C)CC)C(C)C)C(C)C)C(=O)O)C2=O)C/C1=C/C=C1\CCC[C@]2(C)[C@@H]([C@H](C)CCCC(C)(C)O)CC[C@@H]12` (stereo partly shown), the clearance was 0.432 mL/min/kg (male Sprague-Dawley rat, plasma; subcutaneous, 100 µg/kg, single dose).
`CC(C)C[C@H](NC(=O)[C@H](Cc1ccc(O)cc1)NC(=O)[C@@H](CCCNC(=N)N)NC(=O)[C@@H](CO)NC(=O)[C@H](Cc1ccccc1)NC(=O)[C@H](CC1CCCCC1)NC(=O)[C@H](CC(=O)O)NC(=O)CN1CCN(CC(=O)O)CCN(CC(=O)O)CCN(CC(=O)O)CC1)C(=O)N[C@@H](Cc1c[nH]c2ccccc12)C(=O)N[C@@H](CO)C(=O)O` [copper-64 labelled] gave an activity concentration of 804 Bq/mL and 1750 Bq/mL and 4520 Bq/mL and 1790 Bq/mL and 1910 Bq/mL and 1650 Bq/mL (human, upper large intestine; concentration not given, 3 h).

Repeated from above:
For `CC(C)C[C@H](NC(=O)[C@@H](CCCCNC(=O)[C@@H](Cc1ccccc1)NC(=O)CCCCCNC(=O)CN1CCN(CC(=O)O)CCN(CC(=O)O)CCN(CC(=O)O)CC1)NC(=O)[C@H](Cc1ccc(O)cc1)NC(=O)[C@H](CO)NC(=O)[C@H](Cc1c[nH]c2ccccc12)NC(=O)[C@H](Cc1c[nH]cn1)NC(=O)[C@@H]1CCC(=O)N1)C(=O)N[C@@H](CCCNC(=N)N)C(=O)N1CCC[C@H]1C(=O)NCC(N)=O` [indium-111 labelled], the tissue uptake was 7.58 ± 1.1 %ID/g (female athymic nude mice, kidneys; intravenous, 0.037 MBq, 2 h).
